# Assay results of several laboratories.
# Numbered parts are unrelated; each lists some results of a single study. Several values in a cell are separate wells, animals, samples, runs or records.

# Set 1
# Target: Sal-like protein 4, full length isoform A (SALL4, Homo sapiens, UniProt Q9UJQ4, residues 1-1053)
# Sequence of UniProt Q9UJQ4 (whole entry, looked up): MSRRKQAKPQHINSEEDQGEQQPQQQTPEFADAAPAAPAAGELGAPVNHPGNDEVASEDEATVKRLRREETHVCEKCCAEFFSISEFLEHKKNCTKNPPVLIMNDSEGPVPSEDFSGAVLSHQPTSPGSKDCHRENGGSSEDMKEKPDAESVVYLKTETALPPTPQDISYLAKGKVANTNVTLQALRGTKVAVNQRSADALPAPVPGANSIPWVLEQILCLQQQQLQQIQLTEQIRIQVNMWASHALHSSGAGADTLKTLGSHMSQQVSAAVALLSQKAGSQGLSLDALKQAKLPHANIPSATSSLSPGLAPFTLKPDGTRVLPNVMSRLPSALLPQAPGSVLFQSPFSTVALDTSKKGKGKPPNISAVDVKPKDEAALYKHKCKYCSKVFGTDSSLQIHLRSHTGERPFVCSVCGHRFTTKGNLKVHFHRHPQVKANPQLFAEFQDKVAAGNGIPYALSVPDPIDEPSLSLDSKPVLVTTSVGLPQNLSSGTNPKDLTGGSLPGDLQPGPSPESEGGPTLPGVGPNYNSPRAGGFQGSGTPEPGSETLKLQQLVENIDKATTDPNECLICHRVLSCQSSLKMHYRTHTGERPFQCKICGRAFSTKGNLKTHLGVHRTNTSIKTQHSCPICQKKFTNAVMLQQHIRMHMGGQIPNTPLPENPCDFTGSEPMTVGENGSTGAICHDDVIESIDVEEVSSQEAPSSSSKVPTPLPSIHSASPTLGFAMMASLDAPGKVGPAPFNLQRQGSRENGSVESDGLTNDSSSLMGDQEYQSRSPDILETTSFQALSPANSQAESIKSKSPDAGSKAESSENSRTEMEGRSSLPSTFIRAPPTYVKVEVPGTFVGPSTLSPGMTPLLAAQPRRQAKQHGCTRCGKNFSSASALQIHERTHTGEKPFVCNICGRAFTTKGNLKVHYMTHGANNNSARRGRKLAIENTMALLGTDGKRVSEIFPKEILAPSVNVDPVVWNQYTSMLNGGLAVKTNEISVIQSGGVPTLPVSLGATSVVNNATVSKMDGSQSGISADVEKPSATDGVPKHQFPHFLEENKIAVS
# Method: universal PBM
# Molecule type: double-stranded DNA, one strand shown
# Matrix: in vitro
# Concentration: 600 nM
# Notes: 8-mer, flanks averaged, mean of replicates
# Direction: higher = stronger binding
Strand,E-score
CGTAAACC,-0.194
CAGTACCG,-0.211
GAACTACC,-0.00662
AGCCTAAA,-0.00728
GCATGGAC,-0.154
GACTACCC,-0.238
CCAGCGGC,-0.355
CCGGGAGA,-0.259

# Set 2
# Target: RNA binding protein fox-1 homolog 2, RRM domain, GST-SBP tag (RBFOX2, Homo sapiens, UniProt O43251-10, residues 100-194)
# Method: RNA Bind-n-Seq
# Molecule type: RNA
# Matrix: in vitro
# Concentration: 365 nM
# Notes: natural RNA segment, single round, ends assumed
# Baseline: no-protein control
# Direction: higher = stronger binding
# Target sequence (chain): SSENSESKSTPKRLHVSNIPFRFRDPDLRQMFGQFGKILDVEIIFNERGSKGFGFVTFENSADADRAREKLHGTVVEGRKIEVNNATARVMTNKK
Strand,RBNS enrichment (R)
GGGAGUUCUACAGUCCGACGAUCCAGCAGCUGUGGCCAGGAGGAAGCAGGUUGAUUUAGAGAGGGCCCUUGGGACCUGGUUUGGGUGAGGGACCACCAGGGAGCCCAUGCUCUAUGGCUCCCUUCCCUUCUUAUGGAAUUCUCGGGUGCCAA,0.597
GGGAGUUCUACAGUCCGACGAUCGGUGGGAGGCUCUGCUUCCUGCUGCCGCUCUGCAGCCUGGACCUGUGGACCCUGGUUGUAAAGAGUAAAUUGUAUCUUAGGAAACCAGUGUCACCUUUUUUUCACCUUUUUGGAAUUCUCGGGUGCCAA,0.287
GGGAGUUCUACAGUCCGACGAUCUGACCCAUCCUGUCUAUCUUCUCAGUUGAGUUUUUAAUCUCACUUUGGGUUUCCUUGUGAAGUUGGAGGGAAGUUUAUAAUAGCCUAACACUACCCCACCCCCAACUAGGUGGAAUUCUCGGGUGCCAA,0.239
GGGAGUUCUACAGUCCGACGAUCUUUUUUAAUAUUUGGAGCAUGAGUUGUCACUUCUUGUUUGCCUUUUUUAUAAGGAAAUGUUGGAGAGUUACAUCAUUGCUAAUGUAGAAAUGUUAAGUGGAAAAAUAUACUGGAAUUCUCGGGUGCCAA,0.795

# Set 3
# Target: Replicase polyprotein 1ab, nsp13 helicase (rep, Severe acute respiratory syndrome coronavirus 2, UniProt P0DTD1)
# Action: inhibitor
# Concentration: 20 µM
SMILES,inhibition
CC(C)C[C@@H](C=O)NC(=O)[C@H](CC(C)C)NC(=O)[C@H](CC(C)C)NC(=O)OCc1ccccc1,-2.78%
C/C1=C/C[C@@H](/C(C)=C/c2csc(C)n2)OC(=O)C[C@H](O)C(C)(C)C(=O)[C@H](C)[C@@H](O)[C@@H](C)CCC1,5.24%
N#Cc1c(N)nc(SCc2csc(-c3ccc(Cl)cc3)n2)c(C#N)c1-c1ccc(OCCO)cc1,0.59%
CC1=C(/C=C/C(C)=C/C=C/C(C)=C/C=O)C(C)(C)CCC1,2.51%
Nc1cccc(-c2cc3c(Oc4cccc(O)c4)ncnc3[nH]2)c1,2.42%
O=C(NC(Cc1cc(=O)[nH]c2ccccc12)C(=O)O)c1ccc(Cl)cc1 (stereo not drawn),1.88%
Nc1nc(O)c2ncn(CCC(CO)CO)c2n1,10.7%
COc1cc(OC)c2c(=O)[nH]c(-c3cc(C)c(OCCO)c(C)c3)nc2c1,2.77%
CC1=N[C@H](C(=O)O)CCN1,-1.25%
Cc1cc(OCc2nc(-c3ccccc3Cl)cs2)ccc1OCC(=O)O,1.99%
O=C1C(O)=C([C@H]2CC[C@H](c3ccc(Cl)cc3)CC2)C(=O)c2ccccc21,8.23%
Cc1ccc(S(=O)(=O)NC(=O)NN2CCCCCC2)cc1,-1.98%
CCCCCCCCC(=O)NCc1cc(OC)c(O)cc1I,5.63%
O=C1N=C(NCc2cccs2)S/C1=C\c1ccc2ncccc2c1,10.8%
CC(CNC(=O)c1cccnc1)NC(=O)c1cccnc1 (stereo not drawn),8.57%
CNC(=O)c1c(I)c(C(=O)NCC(=O)Nc2c(I)c(C(=O)O)c(I)c(C(=O)NCCO)c2I)c(I)c(N(C)C(C)=O)c1I,-1.4%
CCNC(=O)Nc1ccc(-c2nc3c(c(N4CCOC[C@@H]4C)n2)CCN(C2COC2)C3)cc1,3.06%
CC1=C(C(=O)O)N2C(=O)[C@@H](NC(=O)[C@H](N)C3=CCC=CC3)[C@H]2SC1,-0.26% and -2.38%
O=[N+]([O-])c1c(Nc2cc(F)cc(Cl)c2)ccc2nonc12,1.76%

# Set 4
# Organism: SARS-CoV-2
# Effect on: cytopathic effect
# Cells: Vero E6
# Concentration: 10 µM
Structure (SMILES),inhibition
N=C(N)NN=C1C=CC(=NNC(N)=S)C=C1,5.4%
CN1C(=O)C(N2CCCCC2)S/C1=C\C(=O)O (stereo not drawn),13.4%
O=C(/C=C/c1ccc2ccccc2n1)c1ccncc1,-29.1% and -20%
Cc1cc(-c2ccc(/C=C3/SC(Nc4ccc(Cl)c(C(=O)O)c4)=NC3=O)o2)c([N+](=O)[O-])cc1C,-5.1%
N.N.[Cl][Pt][Cl],6.9%
CCOc1cc(C(Nc2cc(C)ccn2)c2ccc3cccnc3c2O)ccc1OC (stereo not drawn),-9.6%
Sc1nnnn1-c1ccccc1,-7.7%
CN1CCN(C(=O)c2ccc(-c3ccc4c(C=O)c(O)ccc4c3)s2)CC1,-2.7%
